Measurements collected from several papers.
Parts stem from different laboratories: compare values within a part only. Positions count from the first letter of the parent shown.

Set 1
Target: Sal-like protein 4, full length isoform A (SALL4, Homo sapiens, UniProt Q9UJQ4, residues 1-1053)
Sequence of UniProt Q9UJQ4 (whole entry, looked up): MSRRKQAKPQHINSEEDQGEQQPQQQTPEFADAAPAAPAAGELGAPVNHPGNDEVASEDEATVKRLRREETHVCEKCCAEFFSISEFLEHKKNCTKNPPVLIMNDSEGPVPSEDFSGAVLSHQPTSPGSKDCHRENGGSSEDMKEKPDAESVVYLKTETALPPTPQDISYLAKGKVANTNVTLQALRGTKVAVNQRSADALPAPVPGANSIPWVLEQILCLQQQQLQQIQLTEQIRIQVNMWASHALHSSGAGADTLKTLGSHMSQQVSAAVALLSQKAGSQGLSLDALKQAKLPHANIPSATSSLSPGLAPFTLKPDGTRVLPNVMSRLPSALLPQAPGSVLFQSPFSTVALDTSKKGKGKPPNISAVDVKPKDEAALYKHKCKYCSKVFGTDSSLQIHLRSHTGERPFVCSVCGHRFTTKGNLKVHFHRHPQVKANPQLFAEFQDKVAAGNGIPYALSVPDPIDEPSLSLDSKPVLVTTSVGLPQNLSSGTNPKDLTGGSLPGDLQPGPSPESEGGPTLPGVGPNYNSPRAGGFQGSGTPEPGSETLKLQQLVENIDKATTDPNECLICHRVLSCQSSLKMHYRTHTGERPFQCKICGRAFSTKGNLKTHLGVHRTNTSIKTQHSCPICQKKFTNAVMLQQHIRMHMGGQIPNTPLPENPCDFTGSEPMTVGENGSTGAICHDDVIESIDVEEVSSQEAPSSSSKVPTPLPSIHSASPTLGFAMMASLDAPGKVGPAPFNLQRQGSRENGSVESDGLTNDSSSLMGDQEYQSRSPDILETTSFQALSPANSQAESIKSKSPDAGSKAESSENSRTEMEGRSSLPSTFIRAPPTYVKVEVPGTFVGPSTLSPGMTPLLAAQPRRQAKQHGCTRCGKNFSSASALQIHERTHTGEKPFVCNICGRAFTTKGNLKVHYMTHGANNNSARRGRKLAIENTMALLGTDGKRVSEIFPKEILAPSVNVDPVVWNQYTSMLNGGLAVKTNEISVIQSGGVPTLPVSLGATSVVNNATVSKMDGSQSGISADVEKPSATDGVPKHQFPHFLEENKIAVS
Method: universal PBM
Form: double-stranded DNA, one strand shown
Sample: in vitro
Concentration: 600 nM
Setting: 8-mer, flanks averaged, mean of replicates
Reading: higher = stronger binding
Sequence | E-score
CCCAGGCA | -0.135
ACCAACAC | 0.0147
CACGTAAC | -0.078
AGAGTTCC | -0.279
AAGATGCG | 0.0272

Set 2
Target: ABI1, truncated, D143A, DHFR fusion (Arabidopsis thaliana)
Method: DHFR PCA, deep sequencing
Sample: yeast
Setting: methotrexate growth selection, single substitutions
With: (+)-ABA 0.11 µM
Reference: wild-type fitted maximum
Reading: higher = stronger binding
Starting sequence: PYL1, truncated, DHFR fusion (Arabidopsis thaliana); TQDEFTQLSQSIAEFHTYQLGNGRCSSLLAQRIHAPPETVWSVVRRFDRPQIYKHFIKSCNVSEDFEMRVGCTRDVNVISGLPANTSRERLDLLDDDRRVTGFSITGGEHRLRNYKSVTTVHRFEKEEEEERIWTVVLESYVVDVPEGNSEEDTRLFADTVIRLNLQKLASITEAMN; partner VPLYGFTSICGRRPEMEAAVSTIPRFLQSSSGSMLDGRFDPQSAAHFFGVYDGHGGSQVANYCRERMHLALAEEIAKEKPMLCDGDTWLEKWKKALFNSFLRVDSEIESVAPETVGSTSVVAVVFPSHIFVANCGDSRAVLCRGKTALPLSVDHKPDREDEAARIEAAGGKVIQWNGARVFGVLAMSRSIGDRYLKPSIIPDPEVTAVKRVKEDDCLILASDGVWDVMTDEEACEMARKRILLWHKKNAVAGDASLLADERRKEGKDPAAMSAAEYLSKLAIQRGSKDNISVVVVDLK
Substitution | relative binding score
N114Q | -11.6%
F66I | 0.183%
K54W | -4.18%
K116V | -4.69%
Q2L | 67.3%
R113D | 1.57%

Set 3
Target: Interferon regulatory factor 7, full length, phosphomimetic (IRF7, Homo sapiens, UniProt Q92985, residues 1-503, S101K/S471D/S472D/S475D/S476D/S477D/S483D/S484D/S487D)
Method: protein-binding microarray
Form: double-stranded DNA, one strand shown
Sample: in vitro
Concentration: 250 nM
Setting: 60-bp whole probe
With: salmon DNA 0.4 mg/ml
Reference: random background probes
Reading: higher = stronger binding
Constant ends, left off below: GCCTAGCAC … GTCTTGATTCGCTTGACGCTGCTG
Target sequence (chain): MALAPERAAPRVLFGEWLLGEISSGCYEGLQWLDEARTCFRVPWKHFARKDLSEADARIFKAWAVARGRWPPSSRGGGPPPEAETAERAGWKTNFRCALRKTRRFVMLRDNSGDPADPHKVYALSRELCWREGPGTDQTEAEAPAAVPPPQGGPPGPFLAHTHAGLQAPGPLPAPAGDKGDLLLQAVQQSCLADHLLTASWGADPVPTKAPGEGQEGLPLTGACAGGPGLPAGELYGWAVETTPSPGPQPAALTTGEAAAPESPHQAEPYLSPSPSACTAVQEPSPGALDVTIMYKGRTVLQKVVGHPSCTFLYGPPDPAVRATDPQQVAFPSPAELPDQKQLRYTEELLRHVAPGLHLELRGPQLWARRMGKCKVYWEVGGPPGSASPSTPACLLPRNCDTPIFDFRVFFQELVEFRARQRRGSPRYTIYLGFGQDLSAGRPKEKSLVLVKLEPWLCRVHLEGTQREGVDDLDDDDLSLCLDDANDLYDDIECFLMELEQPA
Sequence | log fluorescence
CCTCACTTCCTTCTGCCTGTGTGCTAG | 0.413 z-score
TAAGGTATCCTTTTCCTTTAGTGCTAG | 1.79 z-score
TTAGGTATCCTACTGGTTTAGTGCTAG | -0.0724 z-score
GACGGTTTCTGTCTCGGGACGTGCTAG | 2.12 z-score
TCATCTATCTCTGTTTTACTGTGCTAG | 0.718 z-score
GACGAACAGGGGTTTCGAGACGTGCTA | 1.92 z-score

Other studies, line by line
Molecule | target | test | system | conditions | scale | endpoint | result
PhoQ, residues 284 288 289 292 302 303 SQSLSM | PhoP, residues 12 14 15 18 19 TPWLV (Escherichia coli, UniProt P23836) | Sort-seq, refers to: YFP reporter | E. coli | PhoQ-PhoP variant library, with: 10 µM Mg2+ | reference: high Mg2+ state, higher = stronger signaling | fold induction | 1.79

Repeated from above (other studies, line by line):
Molecule | target | test | system | conditions | scale | endpoint | result
PhoQ, residues 284 288 289 292 302 303 SQSLSM | PhoP, residues 12 14 15 18 19 TPWLV (Escherichia coli, UniProt P23836) | Sort-seq, refers to: YFP reporter | E. coli | PhoQ-PhoP variant library, with: 10 µM Mg2+ | reference: high Mg2+ state, higher = stronger signaling | fold induction | 1.79
